Published values from different studies.
± gives the spread as reported.

With `Cc1ccc(NC(=O)CSc2nnc(Cn3cnc4c3c(=O)n(C)c(=O)n4C)n2-c2ccccc2)c(C)c1` the haemolysis was 2.7% (bovine erythrocytes; 1 mg/mL, 30 min, 37 °C).
For `CCN(CC)c1cc2[nH]c(C3CCCCC3)nc2cc1NC(=O)c1ccc(OC(F)(F)F)cc1`, the IC50 was > 100 µg/mL (Vero; cytotoxicity, Alamar Blue; 3 days, 37 °C).
The viability of `CCCc1cc(=O)oc2cc(OCc3cc(=O)c(O)co3)ccc12` is reported as > 80% (HEK293; CCK-8; 4 to 108 µM, 24 h).
For `CCN(CC)c1cc2[nH]c(C3CCCCC3)nc2cc1NC(=O)c1ccc(OC(F)F)cc1`, the IC50 was > 100 µg/mL (Vero; cytotoxicity, Alamar Blue; 3 days, 37 °C).
`CCN(Cc1ccccc1OC)C(=O)c1cc(C)c(C)s1` has an IC50 of 20 ± 3.8 µM (HEK293; cell viability, MTT; 72 h).
`CN(C)c1cc2[nH]c(C3CCCCC3)nc2cc1NC(=O)c1ccc(OC(F)(F)F)cc1` gave an IC50 of > 100 µg/mL (Vero; cytotoxicity, Alamar Blue; 3 days, 37 °C).
`COc1ccc(N(C(=O)Nc2c(C)cccc2C)c2cc(Nc3ccc(N4CCN(C)CC4)cc3)ncn2)c(OC)c1` gave a CC50 of 5 ± 2.5 µM (mouse BMDCs; added: zymosan A).
For `CCCCCC(=O)Nc1cc2nc(C3CCCCC3)[nH]c2cc1N(C)C`, the IC50 was > 100 µg/mL (Vero; cytotoxicity, Alamar Blue; 3 days, 37 °C).
`Cn1c(=O)c2c(ncn2Cc2nnc(SCC(=O)Nc3ccccc3)n2-c2ccccc2)n(C)c1=O` has a haemolysis of 17% (bovine erythrocytes; 1 mg/mL, 30 min, 37 °C).
The IC50 of `CN(C)c1cc2[nH]c(C3CCCCC3)nc2cc1NC(=O)c1ccc(C(C)(C)C)cc1` is reported as > 100 µg/mL (Vero; cytotoxicity, Alamar Blue; 3 days, 37 °C).
`Cc1nc2ncnn2c(N2CCN(c3ccc(Cl)cc3)CC2)c1C` — result for “cytotoxicity onset concentration”: > 17.9 µM (BRE-Luc reporter cells; luciferase counter screen).
The efflux ratio of `COc1ccc2c(O[C@@H]3C[C@H]4C(=O)N[C@]5(C(=O)NS(=O)(=O)C6CC6)C[C@H]5/C=C\CCCCN(C)C(=O)[C@@H]4C3)cc(-c3nc(C(C)C)cs3)nc2c1C` is reported as 13 (Caco-2 monolayer; added: efflux inhibitor cocktail; B-A over A-B).
The IC50 of `CCN(CC)c1cc2[nH]c(C3CCCCC3)nc2cc1NC(=O)c1ccc(Br)cc1` is reported as > 100 µg/mL (Vero; cytotoxicity, Alamar Blue; 3 days, 37 °C).
Under “recovery apical to basolateral”, `C[C@H]1O[C@@H](O[C@H]2CC[C@@]3(C)[C@@H](CC[C@]4(C)[C@@H]3C=CC3=C5CC(C)(C)CC[C@]5(CO)[C@H](O)C[C@]34C)[C@]2(C)CO)[C@H](O)[C@@H](O[C@@H]2O[C@H](CO)[C@@H](O)[C@H](O)[C@H]2O)[C@H]1O` is recorded as 61.8% (Caco-2 monolayer; Caco-2 bidirectional transport; 10 µM, 3 h, 37 °C).
`CN(C)c1cc2[nH]c(C3CCCCC3)nc2cc1NC(=O)c1ccco1` has an IC50 of > 100 µg/mL (Vero; cytotoxicity, Alamar Blue; 3 days, 37 °C).
For `CCCCCc1ccc(C#Cc2c(-c3ccc(C)cc3)oc3nc(=O)n([C@H]4C[C@H](OC(C)=O)[C@@H](COC(C)=O)O4)cc23)cc1`, “minimum cytotoxic concentration” read 20 µM (HEL human embryonic lung; cell morphology).
With `Cn1c(=O)c2c(ncn2Cc2nnc(SCC(=O)Nc3ccccc3F)n2-c2ccccc2)n(C)c1=O` the haemolysis was 4.6% (bovine erythrocytes; 1 mg/mL, 30 min, 37 °C).
For `CN(C)c1cc2[nH]c(C3CCCCC3)nc2cc1NC(=O)c1ccc(OC(F)F)cc1`, the IC50 was > 100 µg/mL (Vero; cytotoxicity, Alamar Blue; 3 days, 37 °C).
The uptake clearance of `Telavancin` is reported as 10 ± 0.4 µL/mg protein/h (J774 mouse macrophages; 24 h, 37 °C, 10% fetal calf serum, concentration range).
`CCCCCCCCCC[N+](C)(C)C` gave a CC50 of 1260 µM (horse PBMCs; resazurin viability).
For `CCCCCc1ccc(-c2oc3nc(=O)n([C@H]4C[C@H](OC(C)=O)[C@@H](COC(C)=O)O4)cc3c2C#CCO)cc1`, “minimum cytotoxic concentration” read 100 µM (HEL human embryonic lung; cell morphology).
`CC1=C(CC(=O)Oc2ccc(-c3cc(=S)ss3)cc2)c2cc(F)ccc2/C1=C\c1ccc([S+](C)[O-])cc1` (centres unmarked) gave an IC50 of 100 µM (HepG2 and LS180; EROD activity, inhibitor; 24 h, averaged over cell lines, added: benzo[a]pyrene 1 µM).
The viability of `CCCCCCCC/C=C\CCCCCCCCOC(=O)C1=C(C)NC(=O)NC1c1cccc(O)c1` (centres unmarked) is reported as 77% (C2C12; MTT; 10 µM, 48 h).
`Cc1ccc(NC(=O)CSc2nnc(Cn3cnc4c3c(=O)n(C)c(=O)n4C)n2-c2ccccc2)cc1C` has a haemolysis of 5.9% (bovine erythrocytes; 1 mg/mL, 30 min, 37 °C).
With `CCCCCCCC/C=C\CCCCCCCCOC(=O)C1=C(C)NC(=S)NC1c1ccc(OC)cc1` (centres unmarked) the viability was ~70% (C2C12; cell growth or viability, MTT; 10 µM, 48 h).
For `COC(=O)N[C@H](C(=O)N[C@@H](Cc1ccccc1)[C@@H](O)CN(Cc1ccc(-c2ccccn2)cc1)NC(=O)[C@@H](NC(=O)OC)C(C)(C)C)C(C)(C)C`, the efflux ratio was 2.3 (Caco-2 monolayer; added: efflux inhibitor cocktail; B-A over A-B).
`Cn1c(=O)c2c(ncn2Cc2nnc(SCC(=O)Nc3ccccc3Cl)n2-c2ccccc2)n(C)c1=O` gave a haemolysis of 8.6% (bovine erythrocytes; 1 mg/mL, 30 min, 37 °C).
With `CC1CS(=O)(=O)CCN1/N=C/c1ccc([N+](=O)[O-])o1` (centres unmarked) the CC50 was 140 µM (J774; cell growth or viability, WST-1; 24 h).
For `CCOC(=O)CNC(=O)[C@H](CS)NC(=O)CC[C@H](N)C(=O)O`, the viability was ~50% (OVCAR-5; concentration not given, NEM pretreatment then CuAAC, added: NEM 100 µM).
`Cc1cc(OCc2nnc(SC3CCCC3)n2-c2cccnc2)ccc1-c1ccc(S(C)(=O)=O)cc1` gave a viability of 59 ± 1% (Huh-7 cells, uninfected; 0.1 µM, 5 days).
For `CCCCCc1ccc(C#Cc2c(-c3ccc(CCCCC)cc3)oc3nc(=O)n([C@H]4C[C@H](OC(C)=O)[C@@H](COC(C)=O)O4)cc23)cc1`, “minimum cytotoxic concentration” read 100 µM (HEL human embryonic lung; cell morphology).
`CC(C)(C)c1cc(C(C)(C)C)c(NC(=O)c2c[nH]c3ccccc3c2=O)cc1O` gave a viability of 56.4 ± 9% (Calu-3; MTT; 15 µg/mL, 24 h; baseline: untreated control).
`CCCCCc1ccc(-c2oc3nc(=O)n([C@H]4C[C@H](OC(C)=O)[C@@H](COC(C)=O)O4)cc3c2C#Cc2ccc(C)cc2)cc1`: “minimum cytotoxic concentration” 100 µM (HEL human embryonic lung; cell morphology).
For `CCCN(Cc1ccccc1OC)C(=O)c1ccc(Br)c(Br)c1`, the IC50 was 28 ± 6.4 µM (HEK293; cell viability, MTT; 72 h).
`CCCCCc1ccc(-c2oc3nc(=O)n([C@H]4C[C@H](OC(C)=O)[C@@H](COC(C)=O)O4)cc3c2C#CCCO)cc1`: “minimum cytotoxic concentration” 100 µM (HEL human embryonic lung; cell morphology).
`CC(=O)OC[C@H]1O[C@@H]([Se]Cc2ccc3ccccc3n2)[C@H](OC(C)=O)[C@@H](OC(C)=O)[C@@H]1OC(C)=O` has a CC50 of 26.6 µM (J774; cell growth or viability, WST-1; 24 h).
Under “minimum cytotoxic concentration”, `CC(=O)OC[C@H]1O[C@@H](n2cc3c(C#CCO)c(-c4ccc(C)cc4)oc3nc2=O)C[C@@H]1OC(C)=O` is recorded as > 100 µM (HEL human embryonic lung; cell morphology).
The viability of `CCCCCCCC/C=C\CCCCCCCCOC(=O)C1=C(C)NC(=S)NC1c1cccc(O)c1` (centres unmarked) is reported as ~70% (C2C12; cell growth or viability, MTT; 10 µM, 48 h).
